Experimental data gathered from unrelated publications.
Parts stem from different laboratories: compare values within a part only. Substitutions count along the parent as printed.

Sample 1 — method: DHFR PCA, deep sequencing; matrix: yeast; added: (+)-ABA 710 µM; relative to: wild-type fitted maximum; direction: higher = stronger binding
Target: ABI1, truncated, D143A, DHFR fusion (Arabidopsis thaliana)
Setting: methotrexate growth selection, single substitutions
Parent: PYL1, truncated, DHFR fusion (Arabidopsis thaliana); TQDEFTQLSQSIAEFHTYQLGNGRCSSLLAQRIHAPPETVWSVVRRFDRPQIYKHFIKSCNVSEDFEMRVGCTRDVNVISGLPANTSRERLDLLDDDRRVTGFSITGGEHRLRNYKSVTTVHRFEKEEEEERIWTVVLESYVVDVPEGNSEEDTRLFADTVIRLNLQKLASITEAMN; partner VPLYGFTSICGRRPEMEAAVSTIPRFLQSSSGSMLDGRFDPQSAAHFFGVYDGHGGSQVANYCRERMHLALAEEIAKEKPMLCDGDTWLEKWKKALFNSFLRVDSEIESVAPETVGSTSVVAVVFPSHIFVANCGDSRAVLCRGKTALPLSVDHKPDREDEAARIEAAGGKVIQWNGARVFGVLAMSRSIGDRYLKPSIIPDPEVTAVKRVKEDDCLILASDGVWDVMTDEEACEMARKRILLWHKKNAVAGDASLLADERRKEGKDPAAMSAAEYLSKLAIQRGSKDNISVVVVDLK
Variant | relative binding score [%]
V118R | 101
R98Q | 108
E151R | 99.7
L169P | 0.502
L164I | 101
I133G | 115
V43T | 97.3
S104K | 70.2
R90L | 83.4
R113H | 106
V161P | -4.23
R98S | 108
L29P | 15.8
N61F | 105
E127P | 114
T135W | -0.937

Sample 2 — method: protein binding microarray; molecule type: double-stranded DNA, one strand shown; matrix: in vitro; tested at: not given; relative to: not given; direction: higher = stronger binding
Target: Histone acetyltransferase KAT6A, both winged helices, GST fusion (KAT6A, Homo sapiens, UniProt Q92794, residues 1-181)
Setting: 8-mer, flanks averaged, mean of 2 arrays, mostly near background
Construct (chain): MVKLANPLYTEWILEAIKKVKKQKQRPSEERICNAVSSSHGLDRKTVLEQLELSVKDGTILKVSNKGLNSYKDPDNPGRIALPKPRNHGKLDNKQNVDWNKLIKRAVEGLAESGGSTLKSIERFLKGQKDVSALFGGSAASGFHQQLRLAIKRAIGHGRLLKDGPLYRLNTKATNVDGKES
Oligonucleotide | E-score
TGACCCCA | -0.25
CACAGGGC | -0.109
AGAAATTA | 0.0177
CGAGGTAA | 0.00825
CTCGAATA | -0.165
AGGGATAG | -0.0988
CTTGAGAC | -0.0139
ACTCTCTA | -0.276
GACTAACC | -0.0955
CGTCTTAG | 0.0486
GTGATGAA | -0.133
AGGATGCC | -0.0895
CCCAATCA | -0.172
CGATTTTC | 0.0838
ACCTGGAC | -0.124
ACACATAG | -0.148
CCGATTCC | 0.228
CTGCATAC | -0.0364

Sample 3 — method: protein-binding microarray; molecule type: double-stranded DNA, one strand shown; matrix: in vitro; tested at: 250 nM; setting: 60-bp whole probe; added: salmon DNA 0.4 mg/ml; relative to: random background probes; direction: higher = stronger binding; all sequences stand within: GCCTAGCAC … GTCTTGATTCGCTTGACGCTGCTG
Target: Interferon regulatory factor 7, full length, phosphomimetic (IRF7, Homo sapiens, UniProt Q92985, residues 1-503, S101K/S471D/S472D/S475D/S476D/S477D/S483D/S484D/S487D)
UniProt Q92985, sequence (whole entry, unmodified, looked up): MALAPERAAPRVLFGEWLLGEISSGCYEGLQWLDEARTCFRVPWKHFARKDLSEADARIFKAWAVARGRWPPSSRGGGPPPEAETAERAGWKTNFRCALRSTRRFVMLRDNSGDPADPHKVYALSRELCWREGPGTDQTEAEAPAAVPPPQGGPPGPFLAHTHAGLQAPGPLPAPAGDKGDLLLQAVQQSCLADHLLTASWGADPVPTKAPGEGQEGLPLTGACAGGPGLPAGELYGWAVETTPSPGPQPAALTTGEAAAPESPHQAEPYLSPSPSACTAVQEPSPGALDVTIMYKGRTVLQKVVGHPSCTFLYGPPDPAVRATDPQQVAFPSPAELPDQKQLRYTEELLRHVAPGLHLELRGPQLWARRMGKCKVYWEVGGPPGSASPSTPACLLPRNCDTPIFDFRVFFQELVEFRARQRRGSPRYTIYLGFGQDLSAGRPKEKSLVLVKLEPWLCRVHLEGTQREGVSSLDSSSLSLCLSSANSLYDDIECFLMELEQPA
Oligonucleotide | log fluorescence
GACGGACTGGACTTCCGGGACGTGCTA | -0.856 z-score
TCCATGCTGGCTTTTATGCGGTGCTAG | -1.35 z-score
AGTATGAGTTGCCCTTTCCCGTGCTAG | 0.122 z-score
TTAGGACTGGTCACTGGGTTAGTGCTA | -0.44 z-score
TTAGAACTGGTGTTTCGATTAGTGCTA | 4.52 z-score
TTAGGTTTCCGGTATCGGTTAGTGCTA | 3.22 z-score
TGTGTCTGGAATTTTTAGAAGTGCTAG | -0.413 z-score
TTAGATTTAGGGACTGGATTAGTGCTA | -0.0731 z-score
TTAGGTTTCGTGTATCGGTTAGTGCTA | 5.59 z-score
TCAAACTTCTCCACTGAAACTGTGCTA | 0.365 z-score
CTAATTTTCATTTTCCAAATGTGCTAG | 3.47 z-score
GACGGTATCGGACTCGGGACGTGCTAG | 0.0854 z-score
GGCGGACTGGGGACTGGGGACGTGCTA | -0.677 z-score
TTAGATTTCAGTATCGATTCGTGCTAG | 3.11 z-score
TCAAGTCCCAAGAATGGTACTGTGCTA | 0.47 z-score
TTAGATTTAAGTTTCGATTAGTGCTAG | 8.51 z-score
GACGGTATCCTTTTCCTGACGTGCTAG | 0.969 z-score

Sample 4 — method: RNA Bind-n-Seq; molecule type: RNA; matrix: in vitro; tested at: not given; relative to: input RNA pool; direction: higher = stronger binding
Target: RING finger protein unkempt homolog, zinc fingers 1-6, GST-SBP tag (UNK, Homo sapiens, UniProt Q9C0B0, residues 30-357)
Setting: RNA with constant flanks, human-mouse chimeric sites, ends assumed
All sequences stand within: GGGAGUUCUACAGUCCGACGAUC … CAACAGAGGAUUGAGCAUCA
Residues (chain): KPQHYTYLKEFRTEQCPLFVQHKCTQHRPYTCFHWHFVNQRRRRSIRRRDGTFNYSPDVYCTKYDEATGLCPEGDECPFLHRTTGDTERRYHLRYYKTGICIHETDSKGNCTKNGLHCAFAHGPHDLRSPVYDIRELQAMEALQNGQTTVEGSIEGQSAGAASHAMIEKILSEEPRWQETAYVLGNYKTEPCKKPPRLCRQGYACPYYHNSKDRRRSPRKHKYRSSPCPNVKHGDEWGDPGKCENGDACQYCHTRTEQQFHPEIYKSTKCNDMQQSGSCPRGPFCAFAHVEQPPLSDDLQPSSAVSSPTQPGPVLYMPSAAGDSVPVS
Oligonucleotide | bound/input enrichment [ratio]
AAUGUUCUUAAUAUUUUUGAAUAAAUGAAGCUAAAAUGUCUGCUUUUGGUACAACACGCAUUAAUAAAAGGUUAAGUAAGUUUUGUUACUGAAGUACUAUUUAACAUCUCAGAAAAAAAC | 0.183
AGAAAGCAAAACUUGGAACGAUUUAAGAAAGGAGAUGUAAGAUUCUUGAUUUGCACAGAUGUAGCUGCUAGAGGGAUUGAUAUCCAUGGCGUUCCUUAUGUGAUCAAUGUCACUCUGCCU | 0.142
CACAGAGGAGAUCUGCUGUUCCUCACGAAUUUCCGGGAAGACCCAAUCAGAGCUGGUGAAAUAGUUGUUUUUAAAGUUGAAGGAAGAGACAUUCCGAUAGUUCACAGAGUAAUCAAGGUU | 2.04
AAUUUCCUGUCAUACUUUUUAGACAUUCACAUCAGACGCCUUACUACCCUGGCCACAUUCUAGGUUUGUGUUAUUUCUCAGCUAUGGAUAUGAUCAAAGAGUGAAAAUGCUUAACUAAUG | 0.547
UAUAUCACCAAUGUUCUACAAAAUCCUGACUUGGCUCUGAGAAUGGCUGUGCGGAACAACUUAGCCGGUGCUGAAGAACUCUUUGCCCGGAAAUUUAAUGCUCUCUUCGCCCAGGGAAAC | 0.45
CGCUGGCCCAAGCUGAUGGACUCUGAUGGCCUCCAUCUCUCAGGCACGUGUGCCUUCUCUUAGUUAUUGUUUUCGGGUCACAAAGCUUCUCAGUACUGUGGUUUGAAAGCACCAGCUUUG | 0.419
GGCCUGGGACCGUCCUGGGCUAGUACAAUAGCGGCAGGUGGAGGCUCGAGAGGAAAGUUUGUUAGUGGAGGCAGUGGUAGAGGCCGUCAUGUACGGUCCUUUACUCGAUAGAUGUGUUCU | 0.698
AAUUUCCUGUCAUACUUUUUAGACAUUCACAUCAGACUUACAGAGCACCUGGCCACAUUCUAGUUUUGUGUUAUUUCUCAGCUAUGGGGGUAUGAUUAUGAGAACACUGCUUAACUAAUG | 1.2
CGCUGGCCCAAGCUGAUGGACUCUGAUGGCCUCCAUCUCUCAGGCACGUUUGCCUUCUCUUAGUCCCUGUUUUCGGGAUGUUAUGAAUCUCAGUACUGUGGUUUGAAAGCAGUUAUGUUG | 0.185
UGACAAGGGCACUGCAGGGCCAUGCCUUUCCUUGACAUCCAGAAAAGGCUGGGCAUCAGCCUGGACCGGCACUUUAUGUUCCUAAGCGCAGAACAGCCCUAUAAGAACGCCGCUCGGUGC | 0.0433
AGCACAACACCAGCUAAGCUAAGAAAUCCUUGCACAAGUGAACAAAACUGCACCAGCCCAUUUAGCUACAAAAAUGUGCUUAGUCUUACUGACAGAGGAGAGUUUUUCAAUGAACUUGUU | 1.14

Sample 5 — target: CCNE2, cyclin fold, Cln2 fusion (human); method: yeast growth competition, sequencing; matrix: yeast; setting: strong parent motif; relative to: not given; direction: higher = stronger binding
Parent: CDC25A docking peptide (human); PPHRRRLLFACSP
Variant | normalised enrichment score
A10S | 2.41
A10L | 1.35
H3T | 2.49
P1C | 1.05
H3E | 0.983
L8P | 0.86
L8N | 3.59
H3N | 0.97
L8E | 3.41
P2W | 1.43
A10C | 1.65
C11M | 1.12
P1G | 1.51
L7F | 0.843
C11N | 2.78
